Published values pooled from the literature.
Protocols differ between the studies behind these lines. ± gives the spread as reported.

| SMILES | assay | test system | conditions | unbound fraction |
| --- | --- | --- | --- | --- |
| O=C(NOCCO)c1cc2nc[nH]c2c(F)c1Nc1ccc(Br)cc1Cl | – | ESRD on hemodialysis, plasma | oral, 50 mg, dosed after dialysis, median | 0.894% |
| COCCOc1nc(N)c2nc(O)n(Cc3ccc(C(=O)NCCOCCOCCOCCOCCOCCOCCOCCOCCOCCOCCn4cc(CCC(=O)O)nn4)cc3)c2n1 | rapid equilibrium dialysis | dialyzed fetal bovine serum | – | 0.518 |
| Clc1ccccc1C(c1ccccc1)(c1ccccc1)n1ccnc1 | equilibrium dialysis | 5 nM CYP26B1 in buffer | 1 µM, 12 h, pH 7.4, IC50 assay conditions | 0.43 ± 0.031 |
| CC(C)C[C@H](NC(=O)CNC(=O)c1cc(Cl)ccc1Cl)B(O)O | rapid equilibrium dialysis | normal hepatic function subjects, plasma | 70 or 280 ng/mL, 3 h, 37 °C | 0.0084 ± 0.0035 |
| COCCOc1nc(N)c2nc(O)n(Cc3ccc(C(=O)NCCOCCOCCOCCOCCOCCOCCn4cc(CCC(=O)O)nn4)cc3)c2n1 | rapid equilibrium dialysis | dialyzed fetal bovine serum | – | 0.504 |
| Cc1ccsc1C(=O)Nc1cc(CN2CCN(C(=O)CO)CC2)ccc1/C=C/c1n[nH]c2ccccc12 | equilibrium dialysis | mouse plasma | up to 10 000 ng eq/mL, 6 h, pH 7.2 | 0.048 to 0.057 |
| C[C@H]1CO[C@@H]2Cn3cc(C(=O)NCc4ccc(F)cc4F)c(=O)c(O)c3C(=O)N12 | – | HIV-infected adults, plasma | intramuscular, at Cmax, every 4 weeks, median | 0.00075 |
| CCCS(=O)(=O)Nc1ccc(F)c(C(=O)c2c[nH]c3ncc(-c4ccc(Cl)cc4)cc23)c1F | equilibrium dialysis | 100% human plasma | 5 to 500 µM, after 30 min in uptake plate | 1.2e-05 ± 1.9e-06 |

Some of these lines once more:
| SMILES | assay | test system | conditions | unbound fraction |
| --- | --- | --- | --- | --- |
| C[C@H]1CO[C@@H]2Cn3cc(C(=O)NCc4ccc(F)cc4F)c(=O)c(O)c3C(=O)N12 | – | HIV-infected adults, plasma | intramuscular, at Cmax, every 4 weeks, median | 0.00075 |
